# Published values of several laboratories.
# Every numbered part comes from another study and shows a few of its results, in no order.
# Chain of UniProt P37173 (whole entry, looked up): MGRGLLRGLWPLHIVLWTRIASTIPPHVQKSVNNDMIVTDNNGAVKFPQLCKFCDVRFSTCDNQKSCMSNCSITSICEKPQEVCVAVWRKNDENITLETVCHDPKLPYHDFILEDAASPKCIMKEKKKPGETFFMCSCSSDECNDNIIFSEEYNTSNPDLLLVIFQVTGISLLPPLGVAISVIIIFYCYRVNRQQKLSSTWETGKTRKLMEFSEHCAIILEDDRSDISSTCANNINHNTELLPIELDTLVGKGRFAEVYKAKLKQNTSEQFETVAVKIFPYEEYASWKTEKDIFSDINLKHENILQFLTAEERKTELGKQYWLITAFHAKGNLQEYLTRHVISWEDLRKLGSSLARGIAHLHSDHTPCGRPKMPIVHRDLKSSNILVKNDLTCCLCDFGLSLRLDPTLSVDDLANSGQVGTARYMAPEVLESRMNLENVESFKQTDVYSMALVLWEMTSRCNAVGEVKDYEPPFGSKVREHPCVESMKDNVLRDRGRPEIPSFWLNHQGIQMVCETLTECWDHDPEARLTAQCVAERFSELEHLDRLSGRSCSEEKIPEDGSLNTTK
# Chain of UniProt Q13131 (whole entry, looked up): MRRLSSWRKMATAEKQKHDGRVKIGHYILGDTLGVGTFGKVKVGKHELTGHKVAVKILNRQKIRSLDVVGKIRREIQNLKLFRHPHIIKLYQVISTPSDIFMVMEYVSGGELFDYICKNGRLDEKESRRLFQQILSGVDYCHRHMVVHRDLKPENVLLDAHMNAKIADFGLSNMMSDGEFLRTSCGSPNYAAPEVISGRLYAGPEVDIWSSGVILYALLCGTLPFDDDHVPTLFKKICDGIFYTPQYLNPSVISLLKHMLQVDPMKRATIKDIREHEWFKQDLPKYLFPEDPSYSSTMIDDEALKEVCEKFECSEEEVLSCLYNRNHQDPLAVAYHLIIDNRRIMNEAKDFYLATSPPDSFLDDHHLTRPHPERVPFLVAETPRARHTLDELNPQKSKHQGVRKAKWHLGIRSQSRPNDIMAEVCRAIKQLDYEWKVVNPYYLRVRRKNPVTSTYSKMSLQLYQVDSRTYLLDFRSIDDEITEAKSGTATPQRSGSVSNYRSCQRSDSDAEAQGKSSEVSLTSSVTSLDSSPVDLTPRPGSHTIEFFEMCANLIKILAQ
# Chain of UniProt P11802 (whole entry, looked up): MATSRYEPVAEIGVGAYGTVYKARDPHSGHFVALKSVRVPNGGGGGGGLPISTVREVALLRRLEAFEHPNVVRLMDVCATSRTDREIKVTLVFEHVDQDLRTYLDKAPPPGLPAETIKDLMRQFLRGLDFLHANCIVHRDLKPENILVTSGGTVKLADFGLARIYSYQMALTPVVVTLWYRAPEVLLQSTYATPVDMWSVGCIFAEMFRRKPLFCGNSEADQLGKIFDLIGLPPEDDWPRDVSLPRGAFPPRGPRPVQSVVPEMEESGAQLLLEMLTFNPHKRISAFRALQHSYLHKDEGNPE
# Chain of UniProt Q9NQU5 (whole entry, looked up): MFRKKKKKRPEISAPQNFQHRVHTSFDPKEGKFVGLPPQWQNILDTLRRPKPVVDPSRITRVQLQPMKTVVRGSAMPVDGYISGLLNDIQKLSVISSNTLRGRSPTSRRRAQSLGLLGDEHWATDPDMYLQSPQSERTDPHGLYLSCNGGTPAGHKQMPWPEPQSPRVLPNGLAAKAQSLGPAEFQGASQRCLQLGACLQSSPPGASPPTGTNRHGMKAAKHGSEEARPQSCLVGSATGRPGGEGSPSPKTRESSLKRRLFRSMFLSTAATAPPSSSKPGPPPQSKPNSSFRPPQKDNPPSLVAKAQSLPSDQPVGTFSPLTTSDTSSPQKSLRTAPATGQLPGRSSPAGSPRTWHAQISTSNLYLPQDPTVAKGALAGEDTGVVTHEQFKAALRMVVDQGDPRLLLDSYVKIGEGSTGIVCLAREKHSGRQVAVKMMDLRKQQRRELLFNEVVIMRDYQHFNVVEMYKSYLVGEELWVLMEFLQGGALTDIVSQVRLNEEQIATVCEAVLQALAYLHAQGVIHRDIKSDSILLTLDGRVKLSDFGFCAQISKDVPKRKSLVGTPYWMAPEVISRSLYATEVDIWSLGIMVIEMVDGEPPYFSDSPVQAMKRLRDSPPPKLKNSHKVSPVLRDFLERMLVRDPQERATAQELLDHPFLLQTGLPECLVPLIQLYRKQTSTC
# Chain of UniProt P04629 (whole entry, looked up): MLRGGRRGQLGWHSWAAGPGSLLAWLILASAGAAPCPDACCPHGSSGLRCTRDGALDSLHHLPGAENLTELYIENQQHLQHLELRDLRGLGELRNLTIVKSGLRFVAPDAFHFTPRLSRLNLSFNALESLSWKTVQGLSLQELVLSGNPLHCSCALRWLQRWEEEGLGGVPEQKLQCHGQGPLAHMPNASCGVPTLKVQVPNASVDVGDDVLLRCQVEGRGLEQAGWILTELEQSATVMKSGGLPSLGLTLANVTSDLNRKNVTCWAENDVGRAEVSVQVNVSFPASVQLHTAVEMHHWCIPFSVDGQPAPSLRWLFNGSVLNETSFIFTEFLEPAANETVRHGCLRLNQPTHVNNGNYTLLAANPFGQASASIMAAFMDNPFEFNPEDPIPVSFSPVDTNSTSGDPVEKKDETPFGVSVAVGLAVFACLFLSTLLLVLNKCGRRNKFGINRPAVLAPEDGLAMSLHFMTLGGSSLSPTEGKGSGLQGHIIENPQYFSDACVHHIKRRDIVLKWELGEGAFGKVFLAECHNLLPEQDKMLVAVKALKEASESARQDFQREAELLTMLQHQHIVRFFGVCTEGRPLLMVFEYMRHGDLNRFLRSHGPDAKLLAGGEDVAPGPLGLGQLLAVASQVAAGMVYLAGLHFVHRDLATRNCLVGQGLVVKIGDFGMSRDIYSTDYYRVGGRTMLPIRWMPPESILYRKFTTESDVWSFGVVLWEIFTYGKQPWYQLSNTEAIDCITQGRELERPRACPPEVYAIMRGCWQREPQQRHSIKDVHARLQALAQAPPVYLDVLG
# Chain of UniProt Q9NWZ3 (whole entry, looked up): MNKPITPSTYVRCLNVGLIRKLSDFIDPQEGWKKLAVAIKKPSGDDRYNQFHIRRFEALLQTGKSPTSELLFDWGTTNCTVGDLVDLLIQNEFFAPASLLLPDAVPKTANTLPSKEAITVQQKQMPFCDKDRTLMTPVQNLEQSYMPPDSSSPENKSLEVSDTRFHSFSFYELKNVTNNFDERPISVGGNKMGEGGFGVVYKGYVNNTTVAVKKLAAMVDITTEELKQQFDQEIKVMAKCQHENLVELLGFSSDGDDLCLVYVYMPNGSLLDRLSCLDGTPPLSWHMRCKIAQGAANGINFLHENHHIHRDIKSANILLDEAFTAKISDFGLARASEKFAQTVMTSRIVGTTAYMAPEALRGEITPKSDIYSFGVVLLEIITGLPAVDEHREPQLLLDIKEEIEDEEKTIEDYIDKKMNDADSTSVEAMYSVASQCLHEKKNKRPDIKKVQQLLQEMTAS

# Block 1
# Cell line: Huh-7
# Tested at: 10 µM
# Time: 24 h
Structure (SMILES),viability [%]
Nc1ccc(S(=O)(=O)Nc2ccc(Cl)nn2)cc1,94.6
Nc1ncnc2c1ncn2[C@@H]1O[C@H](CO)[C@@H](O)[C@@H]1O,84.1
Oc1c(Cl)cc(Cl)cc1Sc1cc(Cl)cc(Cl)c1O,87.3
NC[C@H]1O[C@H](O[C@H]2[C@H](O)[C@@H](O[C@H]3O[C@H](CO)[C@@H](O)[C@H](N)[C@H]3O)[C@H](N)C[C@@H]2N)[C@H](O)[C@@H](O)[C@@H]1O,100
Cc1ccc(S(=O)(=O)NC(=O)NN2CCCCCC2)cc1,93.7

# Block 2
# Target: Calcium/calmodulin-dependent protein kinase type II subunit alpha (CAMK2A, Homo sapiens, UniProt Q9UQM7)
# Chain of UniProt Q9UQM7 (whole entry, looked up): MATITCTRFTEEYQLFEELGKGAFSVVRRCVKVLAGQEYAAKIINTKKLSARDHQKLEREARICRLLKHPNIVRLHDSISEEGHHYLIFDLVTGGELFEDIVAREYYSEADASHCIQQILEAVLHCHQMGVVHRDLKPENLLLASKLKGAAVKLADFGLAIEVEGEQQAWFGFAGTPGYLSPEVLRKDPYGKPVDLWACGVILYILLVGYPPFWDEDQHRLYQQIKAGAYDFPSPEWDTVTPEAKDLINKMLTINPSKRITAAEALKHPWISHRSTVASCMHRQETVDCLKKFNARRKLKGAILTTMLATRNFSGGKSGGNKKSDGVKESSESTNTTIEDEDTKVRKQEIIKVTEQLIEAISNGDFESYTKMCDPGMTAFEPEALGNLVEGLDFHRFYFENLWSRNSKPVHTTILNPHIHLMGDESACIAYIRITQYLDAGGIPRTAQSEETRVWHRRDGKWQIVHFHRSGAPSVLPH
# Observed: enzyme activity
# Mode: inhibitor
# Tested at: 10 µM
Compound,inhibition
C[C@@H](O)[C@@H]1NC(=O)[C@H](CCCCN)NC(=O)[C@@H](Cc2c[nH]c3ccccc23)NC(=O)[C@H](Cc2ccc(O)cc2)NC(=O)[C@@H](NC(=O)[C@@H](Cc2ccccc2)NC(=O)CN2CCN(CC(=O)O)CCN(CC(=O)O)CCN(CC(=O)O)CC2)CSSC[C@@H](C(=O)N[C@H](CO)[C@@H](C)O)NC1=O,-9%
CC(C)=CCC[C@](C)(O[C@@H]1O[C@H](CO[C@@H]2O[C@H](CO)[C@@H](O)[C@H](O)[C@H]2O)[C@@H](O)[C@H](O)[C@H]1O)[C@H]1CC[C@]2(C)[C@@H]1[C@H](O)C[C@@H]1[C@@]3(C)CC[C@H](O[C@@H]4O[C@H](CO)[C@@H](O)[C@H](O)[C@H]4O[C@@H]4O[C@H](CO)[C@@H](O)[C@H](O)[C@H]4O)C(C)(C)[C@@H]3CC[C@]12C,-7%
Nc1nc2ncc(CNc3ccc(C(=O)N[C@@H](CCC(=O)O)C(=O)O)cc3)nc2c(=O)[nH]1,3%
C=C/C(C)=C/C=C/C(C)=C/C=C1/C(C)=CCCC1(C)C,2%
COC(=O)C1=CO[C@@H](O[C@@H]2O[C@H](CO)[C@@H](O)[C@H](O)[C@H]2O)[C@@H]2[C@@H](C)CC(=O)[C@]12O,25%
COc1ccc(CCNC(=O)/C=C/c2ccc(O)c(O)c2)cc1,-13%
CO[C@@H]1[C@H](O)[C@@H](CO)O[C@H]1n1cnc2c(N)ncnc21,2%

# Block 3
# Compound: O=C(O)[C@H]1[C@H](Cn2nnc3ccccc3c2=O)CC[C@@H]1C(=O)c1ccc(OCCC2CCOCC2)cc1
# Tested at: 1 µM
target,observed,technique,remaining binding [%]
"Cyclin-dependent kinase 4, with cyclin D1 (CDK4, Homo sapiens, UniProt P11802)",cell-free assay,competition with immobilised ligand,89
"PNCK (Homo sapiens, UniProt Q6P2M8)",cell-free assay,competition with immobilised ligand,46
"TNK1 (Homo sapiens, UniProt Q13470)",cell-free assay,competition with immobilised ligand,100
"Receptor-type tyrosine-protein kinase FLT3, autoinhibited (FLT3, Homo sapiens, UniProt P36888)",cell-free assay,competition with immobilised ligand,96
"AXL (Homo sapiens, UniProt P30530)",cell-free assay,competition with immobilised ligand,100
"EPHB4 (Homo sapiens, UniProt P54760)",cell-free assay,competition with immobilised ligand,96
"FLT3 (Homo sapiens, UniProt P36888, F691L/ITD)",cell-free assay,competition with immobilised ligand,93
"EPHB6 (Homo sapiens, UniProt O15197)",cell-free assay,competition with immobilised ligand,89
"NTRK1 (Homo sapiens, UniProt P04629)",cell-free assay,competition with immobilised ligand,88
"CAMK1 (Homo sapiens, UniProt Q14012)",cell-free assay,competition with immobilised ligand,100
"TGFBR2 (Homo sapiens, UniProt P37173)",cell-free assay,competition with immobilised ligand,100
"DCLK1 (Homo sapiens, UniProt O15075)",cell-free assay,competition with immobilised ligand,73
"AAK1 (Homo sapiens, UniProt Q2M2I8)",binding,,78
"EPHA2 (Homo sapiens, UniProt P29317)",cell-free assay,competition with immobilised ligand,93
"Tyrosine-protein kinase ABL1, phosphorylated (ABL1, Homo sapiens, UniProt P00519)",cell-free assay,competition with immobilised ligand,89
"CDKL5 (Homo sapiens, UniProt O76039)",binding,competition with immobilised ligand,85
"MAPK6 (Homo sapiens, UniProt Q16659)",cell-free assay,competition with immobilised ligand,90

# Block 4
# Compound: CO[C@@H]1[C@H](N(C)C(=O)c2ccccc2)C[C@H]2O[C@]1(C)n1c3ccccc3c3c4c(c5c6ccccc6n2c5c31)C(=O)NC4
# Observed: enzyme activity
# Mode: inhibitor
# Tested at: 1 µM
target,inhibition
"PRKAA1 (Homo sapiens, UniProt Q13131)",91%
"BMX (Homo sapiens, UniProt P51813)",4%
"WEE2 (Homo sapiens, UniProt P0C1S8)",0%
"BMPR2 (Homo sapiens, UniProt Q13873)",0%
"IRAK4 (Homo sapiens, UniProt Q9NWZ3)",16%
"PAK6 (Homo sapiens, UniProt Q9NQU5)",5%

# Repeated from above (block 3):
target,observed,technique,remaining binding [%]
"EPHA2 (Homo sapiens, UniProt P29317)",cell-free assay,competition with immobilised ligand,93
"Tyrosine-protein kinase ABL1, phosphorylated (ABL1, Homo sapiens, UniProt P00519)",cell-free assay,competition with immobilised ligand,89
"CDKL5 (Homo sapiens, UniProt O76039)",binding,competition with immobilised ligand,85
